Published values from different studies.
Protocols differ between the studies behind these lines. “And” joins repeats or separate records; there may be more than shown. Numbers after ± are the reported error.

N#Cc1ccc2c(-c3ccncc3)c(-c3ccc(F)cc3)nn2c1 — result for “log2 fold change”: 0.00305 (kinase binding, competitor, MIB/MS competition, measured: CDC7; Candida albicans cell lysate; 100 nM; baseline: DMSO).
Under “paw edema volume”, O=S(=O)(Nc1nccs1)c1ccc(N=NN(O)c2ccccc2)cc1 is recorded as 6.61 ± 0.56 a.u. (carrageenan-induced paw edema; Wistar rat; oral, 100 mg/kg, 2 h after carrageenan, together with: carrageenan 1% subplantar; higher = more edema).
O=C(O)CNC(=O)Cc1ccccc1 gave a sarcomere length of 1.67 µm (ventricular cardiomyocytes, C57BL/6 mouse; dose not given, 0.6 s).
Under “delta delta Ct”, COc1ccc(-c2cncc(N[C@@H](C)c3cccc(NC(=O)c4cncc(C)c4)c3)n2)cc1OC is recorded as 1.37 (measured: rno-miR-33-5p; rat SU5416/hypoxia model, lung; dose not given, unit not given; baseline: SU5416/hypoxia vehicle).
COc1c(C)cnc(Cn2cc(C#CCCOP(=O)(O)O)c3c(Cl)nc(N)nc32)c1C — result for “stable disease duration”: 19 months (RECIST; human; 96 mg/m2).
Under “percent change from baseline”, C[C@H]1C[C@H]2CSC(N)=N[C@@]2(c2nc(NC(=O)c3ccc(OC(F)F)cn3)cs2)CO1 is recorded as -33.7% (measured: Aβx-40; healthy adults, plasma; 5 mg once daily, day 2; baseline: placebo).
With CSCCNc1nc(SCCC(F)(F)F)nc2c1ncn2[C@@H]1O[C@H](COP(=O)(O)OP(=O)(O)C(Cl)(Cl)P(=O)(O)O)[C@@H](O)[C@H]1O the inhibition was 14.9 ± 17.8% (platelet aggregation, light transmission aggregometry; human patients, platelet-rich plasma; dose not given, 4 to 6 h, together with: TRAP 15 µM).
For Cc1n[nH]c2ccc(-c3cc(OC[C@@H](N)Cc4ccccc4)cnc3-c3ccoc3)cc12, “log2 fold change” read -0.731 (kinase binding, competitor, MIB/MS competition, measured: NIK1; Candida albicans cell lysate; 100 nM; baseline: DMSO).
The VCO2 of Cc1c(C)n(Cc2cccc(OC(C)(C)C(=O)O)c2)c2ccc(C(=O)N[C@@H](C)c3ccc(C(C)(C)C)cc3)cc12 is reported as 75.9 ± 7.04 mL/min/kg (indirect calorimetry; mice, diet-induced obese; dose not given, average over 72 h, end of treatment).
Cc1ccc(N(O)N=Nc2ccc(S(=O)(=O)Nc3cc(C)on3)cc2)cc1: “paw edema volume” 5.22 ± 0.36 a.u. (carrageenan-induced paw edema; Wistar rat; oral, 100 mg/kg, 2 h after carrageenan, together with: carrageenan 1% subplantar; higher = more edema).
The IC50 of COc1nc(NCc2cn(-c3ccc(C(=O)Nc4ccc(F)cc4)cc3)nn2)nc(OC)n1 is reported as 111 ± 1.78 nM (cell viability, MTT; normal colonocytes, rat; 72 h).
Under “paw edema volume”, CCCN(O)N=Nc1ccc(S(=O)(=O)Nc2onc(C)c2C)cc1 is recorded as 3.22 ± 0.56 a.u. (carrageenan-induced paw edema; Wistar rat; oral, 100 mg/kg, 0 h (baseline), together with: carrageenan 1% subplantar; higher = more edema).
Cc1nn(-c2nc3c(F)cc(F)cc3s2)c(O)c1C(c1ccc(C(F)(F)F)cc1)c1c(C)nn(-c2nc3c(F)cc(F)cc3s2)c1O: “total histology score” 1.67 and 0 and 0.667 and 2.33 and 6.33 (mouse, cerulein-induced acute pancreatitis; 25 mg/kg; direction not given).
For Cc1cc(F)cc2c(CCC(=O)N[C@@H]3C(=O)NC[C@H]3O)c(-c3ccc(F)cc3)[nH]c12, the UACR was 361 µg/mg (mice, APOL1 G2, single copy; oral, 30 mg/kg twice daily, day 14, dosing from day 6, together with: IFNγ plasmid injection).
CC[C@@H]1[C@H](F)C(=O)N[C@@H]1COc1nccc2cc(C(N)=O)c(OC)cc12 gave an inhibition of -8.9% (ATP-site probe binding, ActivX profiling, measured: PKD1, PKD2; THP-1 cell lysate; 0.2 mM, Lys2 site).
C[C@@H]1CCC[C@H](n2cnc(-c3cc(Cl)ccc3-n3cc(Cl)nn3)cc2=O)c2cc(ccn2)-c2c(cnn2C(F)F)NC1=O: “concentration for aPTT prolongation” 2400 nM (dog plasma; IC2× aPTT, STA-PTT reagent).
For NC/C(=C\F)COc1cccc(Cn2c(=S)[nH]c(=O)c3[nH]cnc32)c1, “total white blood cell count” read 5.3e+07 and 8.8e+07 and 5.7e+07 and 3.3e+07 and 7.9e+07 (mouse, carrageenan air pouch, air pouch exudate; 3 mg/kg, 12 h).
Cc1c(NC(=O)c2cccnc2)c(=O)n(-c2ccccc2)n1C — result for “centrally nucleated fibres”: 48% and 59% and 55% and 63% and 61% (histology; Dmd C3333Y mice, quadriceps; dose not given).
For Cc1noc(NS(=O)(=O)c2ccc(N=NN(O)c3ccccc3)cc2)c1C, “paw edema volume” read 5.32 ± 0.82 a.u. (carrageenan-induced paw edema; Wistar rat; oral, 100 mg/kg, 3 h after carrageenan, together with: carrageenan 1% subplantar; higher = more edema).
NCC(=O)Nc1cncc(-c2nn3c(=O)cc(N4CCNCC4)nc3s2)c1 — result for “inhibition of platelet aggregation”: 69.2% (ADP-induced platelet aggregation, light transmission aggregometry; stable CAD patients on aspirin; subcutaneous, 0.05 mg/kg, 30 min post-dose, together with: ADP 20 µM; baseline: placebo).
Cn1cc(Nc2nccc(-c3ccc4c(c3)CN(C3COC3)CC[C@H]4NC(=O)c3cn(C(C)(C)C)nn3)n2)cn1 — result for “pathway activation z-score”: 4.73 (measured: Cardiac Hypertrophy Signaling (Enhanced); splenic B cells, mouse; in vivo, 30 mg/kg, IgD-activated B cells; baseline: vehicle, positive = activation).
For CC#CC(=O)N[C@H]1CCCN(c2c(F)cc(C(N)=O)c3[nH]c(C)c(C)c23)C1, the serum immunoglobulin was -0.3 % change (measured: IgA; human; 10 mg once daily, day 21; baseline: baseline).
CCN(O)N=Nc1ccc(S(=O)(=O)Nc2cc(C)on2)cc1: “paw edema volume” 5.7 ± 0.81 a.u. (carrageenan-induced paw edema; Wistar rat; oral, 100 mg/kg, 1 h after carrageenan, together with: carrageenan 1% subplantar; higher = more edema).
Cc1oncc1C(=O)Nc1ccc(C(F)(F)F)cc1 gave a DHO concentration of 3090 ± 134 µM (measured: dihydroorotate; female CD-1 mice, pooled urine; oral, 30 mg/kg daily, 0-8 h after dose 3).
CCc1c(C)nc(-c2ccc(Cl)s2)nc1Nc1ccc(CC(=O)O)cc1 — result for UCP1-positive area: “increased” (C57BL/6J mice, high-fat diet, brown adipose tissue; intraperitoneal, 0.3 mg/kg daily, 60% fat diet 12 weeks, dosed last four; baseline: vehicle).
With CC(C)NCC(O)c1ccc(O)c(O)c1 (stereo not drawn) the sarcomere length was 1.5 µm (ventricular cardiomyocytes, C57BL/6 mouse; dose not given, 0.184 s).
Cc1cccc(N(O)N=Nc2ccc(S(=O)(=O)Nc3onc(C)c3C)cc2)c1: “paw edema volume” 5.3 ± 0.91 a.u. (carrageenan-induced paw edema; Wistar rat; oral, 100 mg/kg, 1 h after carrageenan, together with: carrageenan 1% subplantar; higher = more edema).
For COc1nc(NCc2cn(-c3ccc(C(N)=O)cc3)nn2)nc(OC)n1, the IC50 was 19.9 ± 3.06 nM (cell viability, MTT; normal colonocytes, rat; 72 h).
CCN(O)N=Nc1ccc(S(=O)(=O)Nc2nccs2)cc1: “paw edema volume” 3.62 ± 0.93 a.u. (carrageenan-induced paw edema; Wistar rat; oral, 100 mg/kg, 0 h (baseline), together with: carrageenan 1% subplantar; higher = more edema).
OC(CCN1CCCCC1)(c1ccccc1)C1CC2C=CC1C2 (stereo not drawn) — result for “change, EEG Alpha power, in O1-Pz”: -25.8% (resting-state EEG; healthy elderly humans; oral, 4 mg, eyes closed, LS mean; baseline: baseline).

Some of these lines once more:
For CC#CC(=O)N[C@H]1CCCN(c2c(F)cc(C(N)=O)c3[nH]c(C)c(C)c23)C1, the serum immunoglobulin was -0.3 % change (measured: IgA; human; 10 mg once daily, day 21; baseline: baseline).
CCN(O)N=Nc1ccc(S(=O)(=O)Nc2cc(C)on2)cc1: “paw edema volume” 5.7 ± 0.81 a.u. (carrageenan-induced paw edema; Wistar rat; oral, 100 mg/kg, 1 h after carrageenan, together with: carrageenan 1% subplantar; higher = more edema).
